Assay results of several laboratories.
A part holds a random share of what one study measured. Substitutions count along the parent as printed.

Sample 1 — method: protein binding microarray; form: double-stranded DNA, one strand shown; sample: in vitro; tested at: not given; reference: not given; reading: higher = stronger binding
Target: Histone acetyltransferase KAT6A, winged helix 2, GST fusion (KAT6A, Homo sapiens, UniProt Q92794, residues 85-181)
Setting: 8-mer, flanks averaged, mean of 2 arrays, mostly near background
Residues (chain): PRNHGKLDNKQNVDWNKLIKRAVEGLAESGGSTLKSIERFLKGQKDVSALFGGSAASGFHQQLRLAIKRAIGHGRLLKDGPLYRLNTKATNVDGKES
| Oligonucleotide | E-score |
| --- | --- |
| ACATTGAT | -0.101 |
| ACTGGGCA | 0.00746 |
| TGCAGGCA | 0.0228 |
| CAGGTGCA | -0.00419 |
| ACTCACAA | -0.0146 |
| CTAGGCAG | -0.0799 |
| CCTCTACG | -0.00495 |
| AAGGGTTG | 0.0218 |
| GCCGCATA | 0.213 |
| GTGTACCA | -0.106 |
| CAGGCGTC | 0.129 |
| CCCGCCGA | 0.207 |
| GTAACGGA | 0.057 |
| TAGATCGA | -0.131 |

Sample 2 — method: RNA Bind-n-Seq; form: RNA; sample: in vitro; tested at: 365 nM; reference: no-protein control; reading: higher = stronger binding
Target: RNA binding protein fox-1 homolog 2, RRM domain, GST-SBP tag (RBFOX2, Homo sapiens, UniProt O43251-10, residues 100-194)
Setting: natural RNA segment, single round, ends assumed
Constant ends, left off below: GGGAGUUCUACAGUCCGACGAUC … UGGAAUUCUCGGGUGCCAA
Target sequence (chain): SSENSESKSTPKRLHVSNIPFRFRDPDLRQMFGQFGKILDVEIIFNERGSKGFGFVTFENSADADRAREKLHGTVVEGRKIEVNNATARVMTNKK
| Oligonucleotide | RBNS enrichment (R) |
| --- | --- |
| CUGACUCCUUCAGGGUGCUCUUGAUGGGCUGGCUGUAAGGGAGACUCAGUCCCAGCCUCUCCCCUCUACAACUCCUGCCACUGUUGGCCAUGUCGUAAGGCAGCAGCUGU | 0.335 |
| GAUAACAUUGAACAUGUUCAUAUUGAUAGAGAUAAUAUUGUAUAGGUCUAGUGUGUAUGGAUCUGGGAUCUCCGCCCUUGAGGCAGAGACGGGAAGAUCAGGAGUUCAAG | 0.438 |
| CCAGGGACCUCUUUAUCUCAAUCUAUUUAUUUGGCAUCCUGGGAGGGAUUUCCAAUAGUAAUUUAUGUGACCUGGGGCAGGAUACCGUCAGUGAGGUGCCCAGAGCUGCA | 6.62 |
| AAAUGCCAUGGCCAUUGCUGACCCAUGAUUCAGCUAAGUUAAGCAGUCAUAAGGAAAGAAUUACGUGUACUUCAUAUCCCUAUAAAUUGUAAAUGCUAAAAAUGUUAAAG | 0.318 |
| UGUACACUUUUAGAGUUAUAGUGCCUGAUAAUAUUUUUUGAGAGCCUUUAAUAUGAUAUAGGAAGGCAGAUACAUUGAUAUCACUUGUAGAACUACUUUGGAAUUUAUCU | 0.623 |
| UACAGAAUGAAUGGAGACUGGGUUCCUGAGAAAAGCUUUGAACACACGGGACUACAGAUGGUGCCCUCUCAGGAGUUUUGGGGGAGAAUAGGAGUUACCCAUCAGGUUUC | 2.12 |
| CUUGCUUGUCUGCAUUUAUUAGUGGUAAUAUUCUUUUACGUAUAAUAAAUUUUUAUACCCAAGCCUUUGAUGGUCUCCUCCUCGGGUGUGACUCCAAGGACAGGCAAGUG | 0.476 |
| AGGGCACUAGAAUGAUCUUUAGCCUUGCUUGGAUUGAACUAGGAGAUCUUGACUCUGAGGAGAGCCAGCCCUGUAAAAAGCUUGGUCCUCCUGUGACGGGAGGGAUGGUU | 1.04 |
| UAGACUCAGUCAGGAGUGGUGGUGACACUUGUAAUCCUAGACAGGCAAAAGGGUCACCAGAGGCUUGAGGCCAGCCAGGGCUCCAUAAGGAGAUCAGCCGCCCCCACCCA | 0.222 |
| GAGGUGUCUGAACAAGCUUGGGGAGGGUCUAUAAGGGGUAGGCUCAAAAAAAAAAAAACCCAUUUGCAGAGGCAGUUUUGCCAACACAAGGGCUCUUUCAAGCCGACUUU | 0.605 |
| AAGCUGUGACUGUGCCUGUGAGCGCAGGUGAUGCCACCACCCAGCCGCCCUGUGGACUCCUGGGGCUGGUGCCAGUGCCCCAGGCCUGUGGGUGAGGGGCUCAAGGCCCC | 0.344 |
| AGAAUUUGCAGUUUCUAACAAGGUGAAGAACAGCUAUAGGAUCUAAAGUUCCAUUACAGCUUACUGUGAAAGAAUUGACAAGACUGGCCUCAGACAAGCUAAUCAUGGUG | 0.318 |

Sample 3 — target: CCND2, cyclin fold, Cln2 fusion (human); method: yeast growth competition, sequencing; sample: yeast; setting: weak parent motif; reference: not given; reading: higher = stronger binding
Starting sequence: E2F1 docking peptide (human); PPVKRRLDLETDH; partner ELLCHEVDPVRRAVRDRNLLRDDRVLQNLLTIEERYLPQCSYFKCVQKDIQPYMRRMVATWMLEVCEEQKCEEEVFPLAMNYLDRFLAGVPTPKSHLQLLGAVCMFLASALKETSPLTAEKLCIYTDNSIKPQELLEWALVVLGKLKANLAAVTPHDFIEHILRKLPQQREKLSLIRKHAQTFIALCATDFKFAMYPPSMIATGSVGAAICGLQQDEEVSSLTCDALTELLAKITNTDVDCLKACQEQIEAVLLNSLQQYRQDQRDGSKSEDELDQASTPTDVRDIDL
| Variant | normalised enrichment score |
| --- | --- |
| PEVKRRLDLETDH [P2E] | 0.261 |
| IPVKRRLDLETDH [P1I] | 0.149 |
| PPVKRRLRLETDH [D8R] | -0.108 |
| PPVKRRVDLETDH [L7V] | -0.055 |
| VPVKRRLDLETDH [P1V] | 0.194 |
| PPVKARLDLETDH [R5A] | 0.186 |
| PPKKRRLDLETDH [V3K] | 0.438 |

Single results of other studies
| Substance | target | test | system | setting | how to read | endpoint | value |
| --- | --- | --- | --- | --- | --- | --- | --- |
| PhoQ, residues 284 288 289 292 302 303 NLMGRA | PhoP, residues 12 14 15 18 19 AQCLL (Escherichia coli, UniProt P23836) | Sort-seq, refers to: YFP reporter | E. coli | PhoQ-PhoP variant library, with: 10 µM Mg2+ | reference: high Mg2+ state, higher = stronger signaling | fold induction | 4.34 |

Excerpt of the above (sample 3):
| Variant | normalised enrichment score |
| --- | --- |
| PPVKRRVDLETDH [L7V] | -0.055 |
| IPVKRRLDLETDH [P1I] | 0.149 |
| PEVKRRLDLETDH [P2E] | 0.261 |
